# Measurements collected from several papers.
# Each line is one published result; not all experiments were run side by side. “And” joins repeats or separate records; there may be more than shown. ± gives the spread as reported.
# Target: Serine/threonine-protein kinase PLK1 (PLK1, Homo sapiens, UniProt P53350)
SMILES,assay,test system,setting,how to read,quantity,result
O=C(Nc1ccc(Oc2ncnc3[nH]cc(-c4ccccc4)c23)c(F)c1)c1c2n(n(-c3cc(F)ccc3F)c1=O)CCCC2,"enzyme activity, inhibitor",,0.5 µM,,inhibition,15%
COc1cc(Nc2nccc(-c3cnn4nc(OC)ccc34)n2)cc(C(F)(F)F)c1,"binding, competition with immobilised ligand",,1 µM,,remaining binding,90%
COc1cc(-n2cc3cc(F)cc(C(N)=O)c3n2)cc(Cl)c1C1CC(O)(CCO)Cc2ccccc21 (stereo not shown),"enzyme activity, inhibitor",,10 µM,,inhibition,0.49%
C=CC(=O)Nc1cccc(-c2cnc3[nH]cc(C(=O)NC(C)(C)C)c3n2)c1,"enzyme activity, inhibitor",,0.1 µM,,inhibition,4%
CN1CCN(Cc2ccc(NC(=O)c3cccc(C#Cc4cnc(N)c5ncccc45)c3)cc2C(F)(F)F)CC1,"cell-free assay, competition with immobilised ligand",,50 nM,,remaining binding,77%
Cc1ccc(C)c(-c2ccc3nc(NC(=O)C4CCCCC4)nn3c2)c1,"enzyme activity, Dundee kinase panel",,10 µM,,remaining activity,78%
C=CC(=O)N1Cc2nc(-c3cc(-c4cc(Cl)cnc4Cl)c(F)cc3F)n(-c3ccncn3)c2C1,"cell-free assay, inhibitor",,1 µM,,inhibition,8.3%
COc1c(Cl)cccc1Nc1c(-c2ccncc2C#C[C@@]2(C)CCCN2C(=O)/C=C/CN(C)C)[nH]c2c1C(=O)NCC2,"binding, competition with immobilised ligand",,3 µM,,remaining binding,69%
N[C@H]1CC[C@H](Nc2nccc(-c3cccnc3Oc3ccc(NC(=O)NC4CC4)c4ccccc34)n2)CC1,kinobead competition pulldown,HEK293/HCT116 lysate mixture,"10 µM, 1 h, 4 °C",lower = stronger competition,log2 LFQ intensity,22 and 21.9
CCN1CCN(Cc2ccc(C(=O)Nc3ccc(C)c(NCc4cnc5[nH]ccc5c4OC)c3)cc2C(F)(F)F)CC1,"binding, competition with immobilised ligand",,1 µM,,remaining binding,100%
Cc1ccc(-c2c(/C=C(\C#N)C(=O)NC(C)C)n(CCCO)c3ncnc(N)c23)cc1,"cell-free assay, competition with immobilised ligand",,1 µM,,remaining binding,85%
Cc1nc2c(F)cc(-c3nc(Nc4ccc(CNC(=O)CCCCCCC(=O)NO)cc4)ncc3F)cc2n1C(C)C,"enzyme activity, inhibitor",,1 µM,,inhibition,70%
C[C@H]1CN(C(=O)c2cn(-c3ccnc(N)n3)c3cc(C#CC4(O)CCCCC4)ccc23)CCN1,"enzyme activity, inhibitor, FRET",,1 µM,,inhibition,0%
COc1ccc(NC(=O)Nc2ccc3c(c2)C(=O)N(C(C)CO)CC(C)C(CN(C)Cc2ccc4c(c2)OCO4)O3)cc1 (stereo not shown),"kinase activity, KinaseProfiler",,"0.03 µM, species human",reference: control,remaining activity,82%
NC(=O)C[C@H]1CCc2sc3ncnc(O[C@H]4CC[C@H](N5CCOCC5)CC4)c3c21,"enzyme activity, inhibitor",,10 µM,,inhibition,3%
CC[C@H](C)[C@H](NC(C)=O)C(=O)N[C@@H](CC(=O)O)C(=O)N1CCC[C@H]1C(=O)N1CCC[C@H]1C(=O)N[C@@H](CC(C)C)C(=O)N[C@@H](Cc1c[nH]cn1)C(=O)N[C@@H](CO)C(=O)N[C@H](C(=O)N[C@@H](C)C(N)=O)[C@@H](C)OP(=O)(O)O,"polo-box domain binding, isothermal titration calorimetry",,"concentration not given, 25 °C",,binding enthalpy,-14.5 ± 0.09 kcal/mol
CNC1C[S+]2CC[S+]3CC[S+](C1)[Ru-4]321([N]=C=S)[n]2c3ccc(OC)cc3c3c4c(c5cc(F)c[n+]1c5c32)C(=O)NC4=O (stereo not shown),KinomeScan,,0.1 µM,reference: untreated,remaining binding,96%
CN1CCN(Cc2ccc(-c3ccc(CO[C@H]4CCC[C@@H]4NC(=O)c4cc(-c5cnn(C)c5)cnc4N)cc3)cc2)CC1,"enzyme activity, inhibitor",,0.1 µM,,inhibition,0%
CNS(=O)(=O)Nc1nccc(Cc2c(C)c3ccc(Oc4ncccc4F)cc3oc2=O)c1F,"binding, competition with immobilised ligand",,10 µM,,remaining binding,100%
CNC(=O)C[C@H](Cc1ccc(C#N)cc1)NC(=O)c1cc(-c2ccc(CN[C@H](C)c3ccc(C)cc3)o2)ccc1Cl,"enzyme activity, inhibitor",,1 µM,,activity vs control,92%
Cc1cccc(-c2ccc3nc(NC(=O)C4CCCO4)nn3c2)c1 (stereo not shown),"enzyme activity, Dundee kinase panel",,10 µM,,remaining activity,90%
CC(C)=CC1OC(C)(C)C2C=C3C(=O)C(Cl)=CC(O)C3C3C(O)C4OC4C(=O)C132 (stereo not shown),"cell-free assay, competition with immobilised ligand",,10 µM,,remaining binding,75%
Cc1cccc(O[C@H]2CCC[C@@H](C(C)CNCc3ccncc3)C2)c1 (relative stereo),"enzyme activity, inhibitor",,1 µM,,inhibition,6%
Nc1ncc2c(n1)-c1c([nH]c3ccc(C4=CCOCC4)cc13)CCC2,"binding, competition with immobilised ligand",,1 µM,,remaining binding,100%
CN1CC[C@@H](COc2cnc(C#N)cc2-c2ccn3nc(NC(=O)C4CC4)cc3c2)C1,"enzyme activity, inhibitor",,1 µM,,inhibition,11%

# Repeated from above:
SMILES,assay,test system,setting,how to read,quantity,result
Nc1ncc2c(n1)-c1c([nH]c3ccc(C4=CCOCC4)cc13)CCC2,"binding, competition with immobilised ligand",,1 µM,,remaining binding,100%
NC(=O)C[C@H]1CCc2sc3ncnc(O[C@H]4CC[C@H](N5CCOCC5)CC4)c3c21,"enzyme activity, inhibitor",,10 µM,,inhibition,3%
